Experimental data of several laboratories.
Parts stem from different laboratories: compare values within a part only. Positions count from the first letter of the parent shown.

Sample 1
Target: RNA binding protein fox-1 homolog 2, RRM domain, GST-SBP tag (RBFOX2, Homo sapiens, UniProt O43251-10, residues 100-194)
Method: RNA Bind-n-Seq
Molecule type: RNA
Medium: in vitro
Tested at: 365 nM
Setting: natural RNA segment, single round, ends assumed
Reference: no-protein control
Reading: higher = stronger binding
Residues (chain): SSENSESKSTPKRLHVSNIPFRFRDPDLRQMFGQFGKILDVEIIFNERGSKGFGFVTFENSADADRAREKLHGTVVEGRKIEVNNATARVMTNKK
Oligonucleotide | RBNS enrichment (R)
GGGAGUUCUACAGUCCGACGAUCGCAUUUUCUGGAUGCAAAGGCACUAGCCCAUUUGAAAAUUAAUAUUCCGUGCCUCUGGGCCAAGAGGUCAGCUUUCUGCACGAGGAGAAAAACAGUAACUGCUGUUUGUUUGGAAUUCUCGGGUGCCAA | 8.57
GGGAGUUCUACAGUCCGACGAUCAUAAAAGGAUGAUUUCUGUUUUCAUCUACUUAUGUGGAGUAUGACUCACACUUCUAUAUUUGCACUGGGGAAGACAUAUUCCUAAAAAUGGAUACAUAACAAAGAAUUCUUGGAAUUCUCGGGUGCCAA | 0.367
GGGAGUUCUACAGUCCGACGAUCUCAGAGUGAAAAAGUAAAUUUUAUAGGAAAAAAGGGUAUCAUGAUGAAAUUCAAAAUCUUAUUUUCUAAGGUCAGUGUGCAUUUGUUUAGUUUUGAUGCUUUUCAAAUUAUGGAAUUCUCGGGUGCCAA | 0.395
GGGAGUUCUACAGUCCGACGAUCAGCGUCCUUACCUUCUCUCAUUCCCCAGCUCUCAUUCUGAGCCUUUGGUCCCUGACCUUAUGGCCAUCUUGGAGGUCAGUUGUUCCCUGUGGUUGACUGAACUGCUGUUGUGGAAUUCUCGGGUGCCAA | 0.277
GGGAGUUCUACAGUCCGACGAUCUCAUUUAAAAACUAUAUUUACAGAAGAUGUUUGGUUGCUGGGGGGGCUUUUUUAGGUUUUGGGGCAUUUGUUUUUUGUAAAUAAGAUGAUUAUGCUUUGUGGCUAUCCAUUGGAAUUCUCGGGUGCCAA | 1.28
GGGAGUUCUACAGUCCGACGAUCCAAAUGCUGUCCUUUCCCUUACAGAGAAGAACAAUGGUAACUAAAAGCUGCAUAUAACUAGCAAUAACUACAUUGAACGGUGUGCAUUGUUCAUGAUUGUUGUGUUUUAAUGGAAUUCUCGGGUGCCAA | 0.333
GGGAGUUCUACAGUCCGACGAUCUUGUUUGGUUAUUUGUUUGUUUGAUUUUAACUAGAUGACUGUCUUCAGAAUAAUCCUCACAGUUCUGGAAGAUUGAAAAACCAAGUUCACAUGACAAGAACAAACCCGGUUGGAAUUCUCGGGUGCCAA | 0.665
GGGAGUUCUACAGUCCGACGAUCUUCUUUACCUGUAUACUAAAAACCCUGUUGUAUUGAUUUUUUUAUAAUAAGCCUUUUUACCUCUGUGUAAAAAAUAUAUAUACAAGUGUAUGAUGUACAUUUUAGUUCUUUGGAAUUCUCGGGUGCCAA | 0.459
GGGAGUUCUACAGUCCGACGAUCAUCCAUCUCAAGAUAGAACCUAAGUAUUUCACGUCUGACCAGCAGUCUCUGUGGUUCUGCACAGAUUUUGGAAGGUCUUCACUACUCUUGGAAACAAACCCAUGAAUGAAUGGAAUUCUCGGGUGCCAA | 0.304
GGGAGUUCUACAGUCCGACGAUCCUGUAGUUUAGGGGUUGAUGGUGGUUGAAAUUGAUUUCUGGCUGGUUACUAAGGUGCCUGCUAGCCAUUGUAUAAAAUUAAAACAUGAAGAAUAUUUUUUUUUUGAGCAUUGGAAUUCUCGGGUGCCAA | 1.15
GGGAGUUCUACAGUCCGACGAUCGACCUUGCAAAUUCAGCCGCUGCUUUGAGCCCAAAAUGGGAAUAUUGGUUUUGUGUCCGAGGCUUGUUCCAAGUUUGUCAAUGAGGUUUAUGGAGCCUCCAGAACAGAUGUGGAAUUCUCGGGUGCCAA | 1.29
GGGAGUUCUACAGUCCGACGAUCUUUCUACCAGACAGCGAAGCACCCCUUUGCUUCCCAUGCGACUUCAAGAAGGUUUCCUAUACUAUACAUAUAUAUACGUUCUGGUUGGCAAGCCCUGCUGAUCAGAGAAAUGGAAUUCUCGGGUGCCAA | 0.278

Sample 2
Target: BATF2, bZIP domain (human)
Method: DHFR protein complementation
Medium: yeast
Setting: single substitutions, most at no-binding floor
Reference: wild-type JUN-FOS pair
Reading: higher = stronger binding
Starting sequence: JUN, bZIP domain (human); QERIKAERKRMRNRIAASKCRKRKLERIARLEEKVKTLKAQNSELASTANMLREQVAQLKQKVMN; partner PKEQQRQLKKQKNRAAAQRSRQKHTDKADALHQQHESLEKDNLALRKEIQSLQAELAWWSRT
Substitution | binding fitness [natural log]
K36H | -0.326
L59R | -1.23
K39N | -0.748
E32P | -1.39
K34S | -0.184
K34P | -1.3
E33F | -0.513
L31V | -0.761
A29G | -0.477
A29C | -0.561
A46Y | -0.5
A49H | -1.28
L38Y | -1.41
K39T | -0.349
E44H | -0.426
I28Y | -0.446
L38V | -0.947
M51H | -0.293
K36E | -0.228
S43M | -0.246
T37K | -0.111
V56H | -1.55

Sample 3
Target: CCNA2, cyclin fold, Cln2 fusion (human)
Method: yeast growth competition, sequencing
Medium: yeast
Setting: strong parent motif
Reference: not given
Reading: higher = stronger binding
Starting sequence: PKN2 docking peptide (human); VSAVQKLDFSDTM; partner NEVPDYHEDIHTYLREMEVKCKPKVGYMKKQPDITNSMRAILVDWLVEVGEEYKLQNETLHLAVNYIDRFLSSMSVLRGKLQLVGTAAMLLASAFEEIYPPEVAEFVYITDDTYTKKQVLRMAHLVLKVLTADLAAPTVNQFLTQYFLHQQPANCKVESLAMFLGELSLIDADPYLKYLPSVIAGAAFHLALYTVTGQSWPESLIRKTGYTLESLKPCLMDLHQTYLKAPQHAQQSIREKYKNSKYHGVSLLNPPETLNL
Substitution | normalised enrichment score
D8K | 1.6
T12D | 2.21
S10R | 1.33
A3T | -0.0364
V1E | 0.521
S10D | 1.51
D11A | 2.09
F9V | -0.237
V1H | 2.47
L7C | 0.135
D8S | 1.57
M13N | 2.86
S2K | 3.55
M13I | 2.62
S10L | 0.773
S10T | 2.07

Sample 4
Target: Sal-like protein 4, full length isoform A (SALL4, Homo sapiens, UniProt Q9UJQ4, residues 1-1053)
Sequence of UniProt Q9UJQ4 (whole entry, looked up): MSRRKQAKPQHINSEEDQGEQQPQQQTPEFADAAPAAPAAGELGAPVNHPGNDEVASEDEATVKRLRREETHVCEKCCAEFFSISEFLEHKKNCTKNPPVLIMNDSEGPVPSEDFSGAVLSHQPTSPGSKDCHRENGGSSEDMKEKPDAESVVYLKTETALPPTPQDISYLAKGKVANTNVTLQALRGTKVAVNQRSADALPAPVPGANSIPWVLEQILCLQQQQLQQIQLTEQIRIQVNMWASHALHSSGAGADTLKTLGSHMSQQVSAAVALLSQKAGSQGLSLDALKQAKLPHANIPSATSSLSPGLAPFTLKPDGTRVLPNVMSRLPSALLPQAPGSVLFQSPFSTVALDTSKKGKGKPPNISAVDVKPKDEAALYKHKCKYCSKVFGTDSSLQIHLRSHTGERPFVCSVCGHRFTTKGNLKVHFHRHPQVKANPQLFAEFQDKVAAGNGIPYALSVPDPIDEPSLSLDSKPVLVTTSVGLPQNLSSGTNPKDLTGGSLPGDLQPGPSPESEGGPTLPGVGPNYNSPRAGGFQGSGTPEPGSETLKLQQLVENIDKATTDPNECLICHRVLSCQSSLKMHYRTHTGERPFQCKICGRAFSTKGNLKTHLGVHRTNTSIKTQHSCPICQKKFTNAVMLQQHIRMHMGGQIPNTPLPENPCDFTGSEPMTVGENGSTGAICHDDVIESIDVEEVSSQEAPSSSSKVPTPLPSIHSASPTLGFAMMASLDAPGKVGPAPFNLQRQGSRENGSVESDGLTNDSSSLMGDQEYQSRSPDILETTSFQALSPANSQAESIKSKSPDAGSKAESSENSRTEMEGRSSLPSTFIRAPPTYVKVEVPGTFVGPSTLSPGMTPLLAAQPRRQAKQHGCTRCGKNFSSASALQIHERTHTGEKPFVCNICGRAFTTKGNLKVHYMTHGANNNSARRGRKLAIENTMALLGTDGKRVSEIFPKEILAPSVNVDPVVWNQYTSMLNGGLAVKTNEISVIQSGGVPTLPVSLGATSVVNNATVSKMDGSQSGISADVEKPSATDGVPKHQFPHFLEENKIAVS
Method: universal PBM
Molecule type: double-stranded DNA, one strand shown
Medium: in vitro
Tested at: 600 nM
Setting: 8-mer, flanks averaged, mean of replicates
Reading: higher = stronger binding
Oligonucleotide | E-score
GACTGGAC | -0.266
CATTATAG | 0.268
CAAGGAAG | -0.0931
GGGGCGGA | -0.264
ATATCTAG | 0.265
CTGTACTA | 0.0257
CGCATTCC | -0.248
AGAAAATC | 0.177
GGACACTA | -0.103
ATCATAAA | 0.407
AATTCAGA | 0.213
CTATAAAA | 0.297
CCCAATTC | 0.02
CAGCTGAC | -0.182
GGCACTGA | -0.104
AACACTCG | 0.00828

Sample 5
Target: Ras GTPase-activating protein-binding protein 1, full length (G3BP1, Homo sapiens, UniProt Q13283)
Sequence of UniProt Q13283 (whole entry, looked up): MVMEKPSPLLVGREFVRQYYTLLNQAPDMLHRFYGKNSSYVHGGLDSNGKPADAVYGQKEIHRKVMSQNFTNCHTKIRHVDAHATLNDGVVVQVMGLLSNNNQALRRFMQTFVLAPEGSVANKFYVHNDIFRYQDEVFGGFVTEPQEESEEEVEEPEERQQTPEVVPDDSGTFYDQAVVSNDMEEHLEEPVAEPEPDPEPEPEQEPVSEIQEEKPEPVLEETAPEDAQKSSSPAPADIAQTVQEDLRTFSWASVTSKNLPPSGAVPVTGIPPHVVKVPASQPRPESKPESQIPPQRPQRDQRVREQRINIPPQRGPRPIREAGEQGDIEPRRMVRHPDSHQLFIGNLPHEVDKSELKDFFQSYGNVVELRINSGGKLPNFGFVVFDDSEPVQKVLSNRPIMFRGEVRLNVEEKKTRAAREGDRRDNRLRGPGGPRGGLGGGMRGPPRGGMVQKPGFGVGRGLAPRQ
Method: RNA Bind-n-Seq
Molecule type: RNA
Medium: in vitro
Tested at: 200 nM
Setting: whole 134-nt RNA, ends assumed
Added: 150 mM LiCl
Reference: input library
Reading: higher = stronger binding
Each molecule: 7-deaza-guanosine replaces G
Oligonucleotide | log2 enrichment
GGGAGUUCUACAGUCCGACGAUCUGUGCUACACAUCGUAUGUACCGAAUCGGGGCCCCCCCGGGGCCCCCCCGGGGCCCCCCCGGGAAAGUAUUAUGUUACGCCGUUCGGAUCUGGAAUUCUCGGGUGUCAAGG | -0.289
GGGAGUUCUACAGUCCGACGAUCUGGAUUAGAGAGAAAUUGAAUUUUUUCUUACUUGAACUCCUACUAAAAAGUGAACUAAAUAUUUUAUUGUAGUAAUGGCAUAGAGGAGCCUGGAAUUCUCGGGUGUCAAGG | -2.81
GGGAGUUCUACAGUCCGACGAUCGCAGGAAGUAAAAACAAAUGGAAAUGCUUCGGAUAGUGGCAGGGGUGGGUGUUGCUAAGGAAAGGGUGGGAUGGGAGUGGGUAAAGAGUUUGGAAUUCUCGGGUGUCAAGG | -0.21
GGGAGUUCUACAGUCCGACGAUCAAGUCCUGUGCUACACAUCGUAUGUACCGAAUCGGGUUUUGGGUUUUGGGUUUUGGAAAGUAUUAUGUUACGCCGUUCGGAUCUGCACUUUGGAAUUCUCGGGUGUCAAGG | -0.442
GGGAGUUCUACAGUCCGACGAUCUGAGUAGAUCUAGAAAUGACAGUAUGACUUUGUUUCUAACAGCUCCAAAAUGGAUCAAAAUGUUUGUUUUGGAUGAAGCAGAUGAAAUGUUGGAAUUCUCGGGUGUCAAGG | -3.62
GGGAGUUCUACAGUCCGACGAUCCAAGUCCUGUGCUACACAUCGUAUGUACCGAAUCGGGAAAGGGGAAAGGAAAGGGAAAGUAUUAUGUUACGCCGUUCGGAUCUGCACUUCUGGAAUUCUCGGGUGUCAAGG | -0.238
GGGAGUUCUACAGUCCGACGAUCUCCUGUGCUACACAUCGUAUGUACCGAAUCAAAUUUUUAAAUUUUUUUAAAUUUUUAAAAAAGUAUUAUGUUACGCCGUUCGGAUCUGCAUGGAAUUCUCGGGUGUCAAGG | -3.31
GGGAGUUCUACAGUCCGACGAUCCACAGACAACACGCACCCACACAGACACAGAGGGAAGGGGUUGGGAUGGGGACAGGGUGCACAGCAGGGCGGGGUAGGACCUCAGCCCCUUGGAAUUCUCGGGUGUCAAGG | 0.0962
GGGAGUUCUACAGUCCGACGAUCCUCAAGUCCUGUGCUACACAUCGUAUGUACCGAAUCGGUUUGGAAAAAGGUGGAAAGUAUUAUGUUACGCCGUUCGGAUCUGCACUUCCAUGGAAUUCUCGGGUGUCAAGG | 0.07
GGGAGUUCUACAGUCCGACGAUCGCAGGAAGUAAAAACAAAUGGAAAUGCUUCGGAUAGUGGCAGGGGUGGGGGUUGCUAAGGAAAGGGUGGGAGGGGAGUGGGUAAAGAGUUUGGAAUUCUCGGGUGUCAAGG | -0.498
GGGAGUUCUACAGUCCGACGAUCCACAGACAACACGCACCAAAACAGACACAGAGGGAAGGGGUUGGGAUGGGGACAGGGUGCACAGCAGGGCGGGGUAGGACCCCAGCCCCUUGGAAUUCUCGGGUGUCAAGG | 0.573

A few entries again (sample 2):
Substitution | binding fitness [natural log]
K39T | -0.349
K34P | -1.3
A29C | -0.561
T37K | -0.111
V56H | -1.55
K36E | -0.228
L38V | -0.947
I28Y | -0.446
E44H | -0.426
